Assay results of several laboratories.
Parts stem from different laboratories: compare values within a part only. Changes are numbered by the printed parent chain.

Set 1 — method: RNA Bind-n-Seq; form: RNA; sample: in vitro; concentration: 15 pmol; setting: 4-mer, random 30-nt RNA, single round; with: 3 µM RocA, 2 mM AMP-PNP; relative to: mean of 4-mers; reading: higher = stronger binding
Target: Eukaryotic initiation factor 4A-I (EIF4A1, Homo sapiens, UniProt P60842, residues 1-406, full length assumed)
UniProt P60842, sequence (whole entry, looked up): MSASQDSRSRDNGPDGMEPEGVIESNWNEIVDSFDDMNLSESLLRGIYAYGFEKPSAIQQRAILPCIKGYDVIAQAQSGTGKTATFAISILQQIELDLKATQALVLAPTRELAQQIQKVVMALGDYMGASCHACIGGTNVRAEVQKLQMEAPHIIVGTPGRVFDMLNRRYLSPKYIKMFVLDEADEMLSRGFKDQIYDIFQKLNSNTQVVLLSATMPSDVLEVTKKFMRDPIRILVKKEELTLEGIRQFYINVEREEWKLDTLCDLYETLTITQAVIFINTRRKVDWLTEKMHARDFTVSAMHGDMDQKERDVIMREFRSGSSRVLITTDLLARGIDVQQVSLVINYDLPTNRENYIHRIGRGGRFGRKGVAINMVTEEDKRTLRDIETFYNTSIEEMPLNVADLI
Strand | 4-mer enrichment Z-score
GGGC | 0.74
CACA | -1.32
CAGG | -0.0278
UCGG | -0.163
GGAG | 1.95
AAUU | 0.594
GAGC | 0.633
AGAG | 1.96
CAGC | -0.888
ACCU | -1.04
AUGU | 0.757
UUUC | -0.917
AAAA | 2.67
UACA | -1.09
GUGC | 0.576
GAUU | 0.508
CUAA | -0.182
UAAU | 0.26
ACGC | -0.623
AUUG | 0.447

Set 2 — method: RNA Bind-n-Seq; form: RNA; sample: in vitro; concentration: not given; setting: RNA with constant flanks, ends assumed; relative to: input RNA pool; reading: higher = stronger binding
Target: RING finger protein unkempt homolog, zinc fingers 1-6, GST-SBP tag (UNK, Homo sapiens, UniProt Q9C0B0, residues 30-357)
Residues (chain): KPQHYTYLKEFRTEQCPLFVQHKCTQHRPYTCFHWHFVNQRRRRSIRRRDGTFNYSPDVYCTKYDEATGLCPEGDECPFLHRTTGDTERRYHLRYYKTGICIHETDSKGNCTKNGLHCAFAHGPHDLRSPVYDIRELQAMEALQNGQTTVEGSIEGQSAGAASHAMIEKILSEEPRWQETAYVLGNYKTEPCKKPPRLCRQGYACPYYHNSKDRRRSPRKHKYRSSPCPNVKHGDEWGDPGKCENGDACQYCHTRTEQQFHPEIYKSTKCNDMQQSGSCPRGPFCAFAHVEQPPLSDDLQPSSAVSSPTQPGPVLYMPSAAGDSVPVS
Strand | bound/input enrichment [ratio]
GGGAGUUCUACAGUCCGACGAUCCAGAUCCGAUGCCUCUGCCAGCGUGGGGCUGAGGUCACUGUGGUACCCUGGGACCAUGCACCCGACAGCCAAGAGUAUGAGGGUCUCUUCUUAAGUAAUGGGCCUGGUGACCCUGCCUCCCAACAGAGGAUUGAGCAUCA | 0.106
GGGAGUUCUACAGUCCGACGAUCAAUAGCCUUCUAUUUUUAAUAGGAACCUAGAGAAUACUUAGGAUUAUCUAGAGUUGUUUCUUCCGAAUCUAGAACUAUUUAUUUGUAUUUAAACAAUGUCUAUGAUUUGUACCAAUUCUUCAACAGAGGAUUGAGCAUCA | 15
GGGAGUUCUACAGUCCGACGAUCAACAGUUUUCAGAAGUUCUUAAGGCAAGAGUGAAUUUCUGUGGAUUUUACUGGUCCCAGCUUCCGGUUCUUUACGACACUAACAGGACUGCAUAGAGGCUUUUUCAGCAUUACUGUAUUGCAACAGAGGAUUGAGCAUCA | 0.301
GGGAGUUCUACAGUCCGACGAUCUCUCCAUCUUGUUACAUUCCACUGCGGAGACUACAGGAUUUGGCCUCCAUGAUCAAUGCCGAGUAUUUAAAUGGGUCUGCUGAUGGAUCAGAAUCCUUUCAAGACCCUGAAAAAAGUGAUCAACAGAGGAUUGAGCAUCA | 0.0871
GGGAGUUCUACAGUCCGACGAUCGAUAUAAAGACUAUAUUUUCUGAAUUUAUCACAAUCGAAAUGUUAUUUCACGGCAAAGCUUCCGAGGUCUACACUGCUGCCUACCAGAAUAUACAAAACAUUGAUGAAGAUGAAGAUUUACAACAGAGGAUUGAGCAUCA | 0.391

Set 3 — target: CCNE1, cyclin fold, Cln2 fusion (human); method: yeast growth competition, sequencing; sample: yeast; setting: weak parent motif; relative to: not given; reading: higher = stronger binding
Parent: RB1 docking peptide (human); PKPLKKLRFDIEG
Substitution | normalised enrichment score
PKPLKELRFDIEG [K6E] | -0.453
PKPLKKLQFDIEG [R8Q] | 0.071
PKPLKVLRFDIEG [K6V] | 0.491
PKPLKKLRFEIEG [D10E] | -0.666
EKPLKKLRFDIEG [P1E] | 0.753
PKPLKKLCFDIEG [R8C] | -0.158
PKPLKKERFDIEG [L7E] | 0.171
PKPLKKLRFDHEG [I11H] | 0.22
PKPLKKLRFLIEG [D10L] | 0.319
PKPLKKLRFDAEG [I11A] | 0.818
PKPLKKLRFDILG [E12L] | 0.826
PKPLKKQRFDIEG [L7Q] | -0.535
PKPLKKCRFDIEG [L7C] | 0.228
PGPLKKLRFDIEG [K2G] | -0.104
PKPAKKLRFDIEG [L4A] | 0.546
PKPLKKLRFDIEN [G13N] | 0.178
PKYLKKLRFDIEG [P3Y] | -0.13

Set 4 — method: RNA Bind-n-Seq; form: RNA; sample: in vitro; concentration: 365 nM; relative to: no-protein control; reading: higher = stronger binding
Target: RNA binding protein fox-1 homolog 2, RRM domain, GST-SBP tag (RBFOX2, Homo sapiens, UniProt O43251-10, residues 100-194)
Setting: natural RNA segment, single round, ends assumed
Target sequence (chain): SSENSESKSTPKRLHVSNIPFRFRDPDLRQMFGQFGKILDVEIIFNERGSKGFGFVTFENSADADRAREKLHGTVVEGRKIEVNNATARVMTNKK
Strand | RBNS enrichment (R)
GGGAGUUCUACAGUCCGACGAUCAUGUUAUCCACUCUGUUGCUUUUGUCUGGAAAACUCUACAGUGUUUGUGGGAUGUCCCCAAAGGAAAGCUAUGUUCUAAUUUUAUCAUUUCCAUCUGUCUGGUUAUGUCAUGGAAUUCUCGGGUGCCAA | 1.2
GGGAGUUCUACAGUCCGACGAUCGACCACAGCACACCCAAGGACAUGUGCCUGUCCGGGAGGGCAGCAUGCCGACUUGAUCUUUGAGCCCACUCGUCUGCAUUUGUUCUUUGGGAUUAUAUAAUCUAGGGCCAUGGAAUUCUCGGGUGCCAA | 6.41
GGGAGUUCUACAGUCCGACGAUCCUCUGAAAAUCCCAUUCUUUGAUUUUCCUGGUAUUGUAAUUGGUUAUUGACAAUUGUCAUCAUGAAAUUACCCCUGAAUAAUCAGGUAAAUAAAGGAGUAUAUGAAUAGCUGGAAUUCUCGGGUGCCAA | 0.441
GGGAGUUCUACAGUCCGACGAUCUUUAUUCUUGUUUUGCCUUUUGGGUCUUAUUUCCAGGUCAGGAGAUGGCUAAUCCACACUAGCAAGCCUAGGCAUCUUUAUUCACAUCUCCAUGCUUUCAAGUAGAGCUGUGGAAUUCUCGGGUGCCAA | 0.417
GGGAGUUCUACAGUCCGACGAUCCUUUGUCCCAUUUCUAAAGGCCUCUUCCUUGCUGUGUCAUACCAGGCCGCCCCAGCCUCUGAGCCCCUGGGACUGCUGCUUCUUAACCCCAGUAAGCCACUGCCACACGUUGGAAUUCUCGGGUGCCAA | 0.332
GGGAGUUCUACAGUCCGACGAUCAACUUUGUAACUUAUUGUAGUUAGAAAUUGUAACUUUGAUAUUGAAUUCUCUUGCCUUCAACAAGCACACUGACAGAGAAAAAAUGCUACUGUCUGUUGGUUCCAAUAUUUGGAAUUCUCGGGUGCCAA | 0.267
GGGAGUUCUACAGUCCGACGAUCGAGAGUGAGUGAUGGUCUUGGAAAGGAGCUGGGGUGUGGAUGCUAAAGCCCCCAUUCAUACAAACAAGCAGUAAACAGCCUACCCUGGAAAUACCCCUAGUCCCCAAAGUUGGAAUUCUCGGGUGCCAA | 0.477
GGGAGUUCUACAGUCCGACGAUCCCCUGGGACCCAAAUGGAAGGGGAGACUUAUCUCCUGCAAGUUGUCUUUUAACCUGCGCAUGUGUGUGCACAUGUGCAUGCGCAUACACACACACACACACACACACACAUGGAAUUCUCGGGUGCCAA | 0.744

Set 5 — method: protein binding microarray; form: double-stranded DNA, one strand shown; sample: in vitro; concentration: not given; relative to: not given; reading: higher = stronger binding
Target: Histone acetyltransferase KAT6A, winged helix 1, GST fusion (KAT6A, Homo sapiens, UniProt Q92794, residues 1-85)
Setting: 8-mer, flanks averaged, mean of 2 arrays, mostly near background
Construct (chain): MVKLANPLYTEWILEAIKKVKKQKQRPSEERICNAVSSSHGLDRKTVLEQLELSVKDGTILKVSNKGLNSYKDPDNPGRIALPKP
Strand | E-score
CCAGTGTC | -0.0577
CGTTCTTC | 0.0516
GTAGTTGA | -0.0675
ACAGACCT | 0.0281
ACTACCTC | -0.167
ACGGAACT | 0.154
TACATACA | -0.0783
CTCGAACA | -0.225
TCCGTCCA | 0.0622
GCCAAAAA | -0.18
AAATCCCA | -0.178
AGGCTGTA | -0.197
ACTGTAGC | -0.0699
TCCTTGAA | -0.000135
CTCAGTGA | -0.242
CCGAAGAG | 0.0278
CTAGACTC | -0.0159
GAAAGGGA | 0.0209
CAGATCAG | -0.0741
AACTCCGC | 0.0575
CGGGACAC | 0.216
ATAGCATA | -0.157
GTAATAGA | -0.0286
CATTATGC | -0.0724
ACAGGAGG | -0.232

Set 6 — method: RNAcompete; form: RNA; sample: in vitro; concentration: 20 nM; setting: 7-mer, probes averaged, single round; relative to: mean of 7-mers; reading: higher = stronger binding
Target: PABPC1L2, full length, GST fusion (mouse, UniProt A0ABA7IW68)
Target sequence (chain): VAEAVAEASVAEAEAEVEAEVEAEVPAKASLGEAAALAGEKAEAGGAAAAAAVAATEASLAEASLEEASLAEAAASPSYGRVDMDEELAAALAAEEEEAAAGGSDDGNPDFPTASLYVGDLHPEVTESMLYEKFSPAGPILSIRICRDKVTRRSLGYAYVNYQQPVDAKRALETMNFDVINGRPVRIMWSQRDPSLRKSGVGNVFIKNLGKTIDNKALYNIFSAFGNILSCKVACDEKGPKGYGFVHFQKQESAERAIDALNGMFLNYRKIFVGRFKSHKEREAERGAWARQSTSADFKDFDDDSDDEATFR
Strand | 7-mer Z-score
UCGUCGU | -0.512
UGCAAGG | 0.153
GCAUGGA | 0.206
GCCGCGC | -0.354
GCCGCAA | -0.0718
GGGCAAC | 0.363
AACUGGU | 0.148
AAGGUAA | 0.276
GCGCCGU | -0.349
ACUUCGC | -0.286
ACAUGCA | 0.191
ACGAUUG | -0.05
AUGCACA | -0.184
UGAGUUG | -0.324

Excerpt of the above (set 6):
Strand | 7-mer Z-score
UCGUCGU | -0.512
UGCAAGG | 0.153
GCAUGGA | 0.206
GCCGCGC | -0.354
GCCGCAA | -0.0718
